{"data": "Assay results gathered from unrelated publications", "note": "Every numbered part comes from another study and shows a few of its results, in no order. Changes are numbered by the printed parent chain.", "sequence of UniProt Q07912 (whole entry, looked up)": "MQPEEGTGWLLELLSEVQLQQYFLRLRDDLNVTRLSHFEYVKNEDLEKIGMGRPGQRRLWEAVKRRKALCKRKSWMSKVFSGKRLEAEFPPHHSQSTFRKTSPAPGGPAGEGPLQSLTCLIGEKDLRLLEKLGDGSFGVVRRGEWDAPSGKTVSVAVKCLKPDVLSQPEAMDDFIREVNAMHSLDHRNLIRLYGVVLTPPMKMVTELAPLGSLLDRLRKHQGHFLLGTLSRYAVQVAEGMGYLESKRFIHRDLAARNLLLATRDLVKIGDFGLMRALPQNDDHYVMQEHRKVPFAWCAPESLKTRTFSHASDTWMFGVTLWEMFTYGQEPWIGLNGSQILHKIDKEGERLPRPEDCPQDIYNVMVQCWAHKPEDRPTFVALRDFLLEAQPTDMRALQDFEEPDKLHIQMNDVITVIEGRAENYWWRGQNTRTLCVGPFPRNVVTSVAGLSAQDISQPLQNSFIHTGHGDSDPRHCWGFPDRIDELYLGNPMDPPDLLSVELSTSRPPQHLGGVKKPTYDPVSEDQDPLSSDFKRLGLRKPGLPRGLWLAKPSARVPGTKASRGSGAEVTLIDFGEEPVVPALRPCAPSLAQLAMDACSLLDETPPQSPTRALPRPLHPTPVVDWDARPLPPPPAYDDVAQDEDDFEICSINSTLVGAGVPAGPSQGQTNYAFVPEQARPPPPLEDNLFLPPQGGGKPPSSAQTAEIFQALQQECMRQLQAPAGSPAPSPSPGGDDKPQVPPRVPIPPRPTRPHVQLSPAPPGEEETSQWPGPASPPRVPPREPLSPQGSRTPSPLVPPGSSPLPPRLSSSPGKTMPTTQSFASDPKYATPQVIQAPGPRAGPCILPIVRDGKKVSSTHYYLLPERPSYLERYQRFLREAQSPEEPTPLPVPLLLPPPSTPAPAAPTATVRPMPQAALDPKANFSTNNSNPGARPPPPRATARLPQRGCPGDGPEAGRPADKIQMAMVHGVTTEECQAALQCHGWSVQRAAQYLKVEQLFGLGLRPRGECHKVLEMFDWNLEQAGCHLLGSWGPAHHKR", "sequence of UniProt O95819 (whole entry, looked up)": "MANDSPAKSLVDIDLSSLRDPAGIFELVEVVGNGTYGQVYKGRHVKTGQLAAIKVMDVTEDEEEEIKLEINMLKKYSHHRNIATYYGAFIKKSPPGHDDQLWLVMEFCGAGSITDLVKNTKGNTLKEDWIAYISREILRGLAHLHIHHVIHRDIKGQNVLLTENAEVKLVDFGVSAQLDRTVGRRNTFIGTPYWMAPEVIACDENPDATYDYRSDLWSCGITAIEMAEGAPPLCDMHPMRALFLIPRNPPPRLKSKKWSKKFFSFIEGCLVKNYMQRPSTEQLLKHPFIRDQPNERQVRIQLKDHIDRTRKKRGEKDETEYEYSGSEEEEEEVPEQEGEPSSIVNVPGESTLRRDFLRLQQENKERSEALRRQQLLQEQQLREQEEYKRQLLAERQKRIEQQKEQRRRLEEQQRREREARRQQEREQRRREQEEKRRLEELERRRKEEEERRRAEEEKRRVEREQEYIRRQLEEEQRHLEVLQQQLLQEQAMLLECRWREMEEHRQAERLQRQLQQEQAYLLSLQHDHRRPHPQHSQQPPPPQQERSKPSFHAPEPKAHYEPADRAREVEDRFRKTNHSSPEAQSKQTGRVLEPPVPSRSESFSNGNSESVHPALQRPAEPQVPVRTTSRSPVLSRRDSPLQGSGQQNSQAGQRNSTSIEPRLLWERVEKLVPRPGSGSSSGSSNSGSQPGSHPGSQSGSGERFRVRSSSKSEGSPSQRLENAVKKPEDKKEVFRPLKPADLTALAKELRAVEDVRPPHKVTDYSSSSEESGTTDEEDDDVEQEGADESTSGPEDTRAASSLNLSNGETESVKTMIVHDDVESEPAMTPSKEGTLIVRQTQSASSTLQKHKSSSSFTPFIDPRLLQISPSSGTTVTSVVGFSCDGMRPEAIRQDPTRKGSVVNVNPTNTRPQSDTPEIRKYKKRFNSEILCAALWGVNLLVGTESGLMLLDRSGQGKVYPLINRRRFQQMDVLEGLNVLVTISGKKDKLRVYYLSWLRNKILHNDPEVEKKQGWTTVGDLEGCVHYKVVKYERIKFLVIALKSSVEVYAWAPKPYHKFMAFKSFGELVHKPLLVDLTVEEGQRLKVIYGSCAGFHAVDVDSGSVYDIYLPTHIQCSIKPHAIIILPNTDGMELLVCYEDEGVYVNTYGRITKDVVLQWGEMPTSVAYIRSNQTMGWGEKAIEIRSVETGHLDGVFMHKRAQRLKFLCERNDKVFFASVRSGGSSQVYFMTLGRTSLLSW", "sequence of UniProt Q04912 (whole entry, looked up)": "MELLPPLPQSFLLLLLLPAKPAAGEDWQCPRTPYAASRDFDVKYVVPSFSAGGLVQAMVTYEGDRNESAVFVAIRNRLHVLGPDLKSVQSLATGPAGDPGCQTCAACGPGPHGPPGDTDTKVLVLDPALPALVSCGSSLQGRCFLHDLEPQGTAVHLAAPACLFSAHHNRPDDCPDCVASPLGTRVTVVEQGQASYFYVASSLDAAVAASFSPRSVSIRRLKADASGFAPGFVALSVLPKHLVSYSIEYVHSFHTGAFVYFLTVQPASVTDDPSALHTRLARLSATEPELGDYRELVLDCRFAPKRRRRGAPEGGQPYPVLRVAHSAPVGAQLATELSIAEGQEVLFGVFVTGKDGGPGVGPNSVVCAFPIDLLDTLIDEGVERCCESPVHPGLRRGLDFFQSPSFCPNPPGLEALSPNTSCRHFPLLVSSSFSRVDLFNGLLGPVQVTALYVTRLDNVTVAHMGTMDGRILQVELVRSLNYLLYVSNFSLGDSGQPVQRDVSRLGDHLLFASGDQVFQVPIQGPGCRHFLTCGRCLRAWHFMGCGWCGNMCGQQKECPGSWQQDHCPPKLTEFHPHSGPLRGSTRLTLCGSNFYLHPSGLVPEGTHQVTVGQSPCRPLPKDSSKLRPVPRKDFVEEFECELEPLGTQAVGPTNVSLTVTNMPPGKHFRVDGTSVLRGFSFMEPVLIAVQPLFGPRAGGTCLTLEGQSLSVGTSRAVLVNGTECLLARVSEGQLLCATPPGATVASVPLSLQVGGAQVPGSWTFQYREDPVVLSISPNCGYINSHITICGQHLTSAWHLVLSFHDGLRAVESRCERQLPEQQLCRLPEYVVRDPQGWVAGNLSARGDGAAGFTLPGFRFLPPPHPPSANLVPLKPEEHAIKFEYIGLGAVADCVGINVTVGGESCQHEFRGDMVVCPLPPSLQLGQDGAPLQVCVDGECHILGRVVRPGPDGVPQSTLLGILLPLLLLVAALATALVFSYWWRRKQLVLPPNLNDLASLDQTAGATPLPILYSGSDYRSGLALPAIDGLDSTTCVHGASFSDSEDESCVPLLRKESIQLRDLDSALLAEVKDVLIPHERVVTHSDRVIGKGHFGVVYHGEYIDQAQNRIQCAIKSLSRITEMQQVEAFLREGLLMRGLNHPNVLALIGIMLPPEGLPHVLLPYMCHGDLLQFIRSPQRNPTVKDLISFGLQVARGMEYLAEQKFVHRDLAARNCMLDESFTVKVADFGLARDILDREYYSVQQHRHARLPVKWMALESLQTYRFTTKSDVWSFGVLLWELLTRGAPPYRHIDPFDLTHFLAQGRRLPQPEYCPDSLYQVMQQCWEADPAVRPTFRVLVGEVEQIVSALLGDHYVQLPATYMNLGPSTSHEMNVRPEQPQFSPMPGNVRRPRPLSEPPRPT"}
{"data": "Block 1", "SMILES": "COCCOc1nc(-c2ccc(Cl)nc2)nc2c1CN(C(=O)c1ncn3ccccc13)CC2", "read-out": "cell-free assay", "method": "competition with immobilised ligand", "concentration": "0.1 µM"}
{"target": "Proto-oncogene tyrosine-protein kinase Src (SRC, Homo sapiens, UniProt P12931)", "remaining binding": "95%"}
{"target": "Angiopoietin-1 receptor (TEK, Homo sapiens, UniProt Q02763)", "remaining binding": "100%"}
{"target": "Macrophage-stimulating protein receptor (MST1R, Homo sapiens, UniProt Q04912)", "remaining binding": "100%"}
{"target": "Activated CDC42 kinase 1 (TNK2, Homo sapiens, UniProt Q07912)", "remaining binding": "100%"}
{"target": "Phosphatidylinositol 3-kinase C2 domain-containing subunit gamma (PIK3C2G, Homo sapiens, UniProt O75747)", "remaining binding": "100%"}
{"target": "Epidermal growth factor receptor (EGFR, Homo sapiens, UniProt P00533, del747-752/P753S)", "remaining binding": "100%"}
{"target": "Serine/threonine-protein kinase TNNI3K (TNNI3K, Homo sapiens, UniProt Q59H18)", "remaining binding": "100%"}
{"target": "Serine/threonine-protein kinase Nek5 (NEK5, Homo sapiens, UniProt Q6P3R8)", "remaining binding": "100%"}
{"target": "Mitogen-activated protein kinase kinase kinase kinase 4 (MAP4K4, Homo sapiens, UniProt O95819)", "remaining binding": "73%"}
{"target": "Serine/threonine-protein kinase 3 (STK3, Homo sapiens, UniProt Q13188)", "remaining binding": "100%"}
{"target": "Phosphatidylinositol 4,5-bisphosphate 3-kinase catalytic subunit alpha isoform (PIK3CA, Homo sapiens, UniProt P42336, E545K)", "remaining binding": "71%"}
{"target": "Serine/threonine-protein kinase N1 (PKN1, Homo sapiens, UniProt Q16512)", "remaining binding": "100%"}
{"target": "Receptor-type tyrosine-protein kinase FLT3 (FLT3, Homo sapiens, UniProt P36888, K663Q)", "remaining binding": "100%"}
{"target": "Serine/threonine-protein kinase DCLK3 (DCLK3, Homo sapiens, UniProt Q9C098)", "remaining binding": "100%"}
{"target": "Serine/threonine-protein kinase BRSK1 (BRSK1, Homo sapiens, UniProt Q8TDC3)", "remaining binding": "100%"}
{"data": "Block 2", "target": "ATF3, bZIP domain (human)", "method": "DHFR protein complementation", "matrix": "yeast", "notes": "single substitutions, most at no-binding floor", "relative to": "wild-type JUN-FOS pair", "direction": "higher = stronger binding", "starting sequence": "JUN, bZIP domain (human); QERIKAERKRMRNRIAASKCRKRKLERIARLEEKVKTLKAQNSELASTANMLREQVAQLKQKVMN; partner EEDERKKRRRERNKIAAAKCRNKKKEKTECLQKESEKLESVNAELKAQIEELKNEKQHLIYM"}
{"Substitution": "S47W", "binding fitness [natural log]": -0.156}
{"Substitution": "A46F", "binding fitness [natural log]": -0.258}
{"Substitution": "V35W", "binding fitness [natural log]": -0.591}
{"Substitution": "L31E", "binding fitness [natural log]": -0.308}
{"Substitution": "T48F", "binding fitness [natural log]": -0.207}
{"Substitution": "S43A", "binding fitness [natural log]": 0.0541}
{"Substitution": "L45W", "binding fitness [natural log]": -0.924}
{"Substitution": "L45H", "binding fitness [natural log]": -1.19}
{"data": "Block 3", "target": "Protein kinase C beta type, isoform beta-I (PRKCB, Homo sapiens, UniProt P05771)", "read-out": "enzyme activity", "mode": "inhibitor", "concentration": "0.5 µM", "relative to": "control", "sequence of UniProt P05771 (whole entry, looked up)": "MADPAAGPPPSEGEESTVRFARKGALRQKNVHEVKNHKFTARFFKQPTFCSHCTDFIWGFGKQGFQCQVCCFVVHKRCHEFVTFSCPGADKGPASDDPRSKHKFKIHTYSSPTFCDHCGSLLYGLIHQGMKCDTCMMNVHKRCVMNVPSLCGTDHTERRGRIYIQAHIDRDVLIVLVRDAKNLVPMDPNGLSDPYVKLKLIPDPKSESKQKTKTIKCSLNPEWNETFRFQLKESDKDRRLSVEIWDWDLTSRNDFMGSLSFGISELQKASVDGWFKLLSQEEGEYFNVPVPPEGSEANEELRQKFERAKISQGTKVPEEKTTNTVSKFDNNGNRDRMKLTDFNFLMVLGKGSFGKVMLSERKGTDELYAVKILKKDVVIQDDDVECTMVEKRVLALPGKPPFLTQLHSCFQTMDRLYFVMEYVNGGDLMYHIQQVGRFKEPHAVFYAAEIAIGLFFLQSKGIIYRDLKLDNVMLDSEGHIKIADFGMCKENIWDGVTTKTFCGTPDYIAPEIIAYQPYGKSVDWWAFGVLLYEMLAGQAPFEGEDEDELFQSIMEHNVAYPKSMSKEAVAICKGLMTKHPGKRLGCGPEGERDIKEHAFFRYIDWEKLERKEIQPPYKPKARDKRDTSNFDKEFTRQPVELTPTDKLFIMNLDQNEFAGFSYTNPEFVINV"}
{"SMILES": "Nc1ccc2ncnc(NCCc3ccc(Oc4ccccc4)cc3)c2c1", "remaining activity [%]": 96.3}
{"SMILES": "O=C1NC(=O)c2cc(Nc3ccc(F)cc3)c(Nc3ccc(F)cc3)cc21", "remaining activity [%]": 28.2}
{"SMILES": "COc1cc2ncnc(Nc3ccc(F)c(Cl)c3)c2cc1OCCCN1CCOCC1", "remaining activity [%]": 95}
{"SMILES": "CN(C)c1ccc(C=C2C(=O)Nc3ccccc32)cc1", "remaining activity [%]": 96.1}
{"data": "Block 4", "target": "Ras GTPase-activating protein-binding protein 1, full length (G3BP1, Homo sapiens, UniProt Q13283)", "method": "RNA Bind-n-Seq", "molecule type": "RNA", "matrix": "in vitro", "concentration": "200 nM", "notes": "whole 134-nt RNA, ends assumed", "together with": "150 mM LiCl", "relative to": "input library", "direction": "higher = stronger binding", "library": "7-deaza-guanosine replaces G", "constant ends, left off below": "GGGAGUUCUACAGUCCGACGAUC … UGGAAUUCUCGGGUGUCAAGG", "sequence of UniProt Q13283 (whole entry, looked up)": "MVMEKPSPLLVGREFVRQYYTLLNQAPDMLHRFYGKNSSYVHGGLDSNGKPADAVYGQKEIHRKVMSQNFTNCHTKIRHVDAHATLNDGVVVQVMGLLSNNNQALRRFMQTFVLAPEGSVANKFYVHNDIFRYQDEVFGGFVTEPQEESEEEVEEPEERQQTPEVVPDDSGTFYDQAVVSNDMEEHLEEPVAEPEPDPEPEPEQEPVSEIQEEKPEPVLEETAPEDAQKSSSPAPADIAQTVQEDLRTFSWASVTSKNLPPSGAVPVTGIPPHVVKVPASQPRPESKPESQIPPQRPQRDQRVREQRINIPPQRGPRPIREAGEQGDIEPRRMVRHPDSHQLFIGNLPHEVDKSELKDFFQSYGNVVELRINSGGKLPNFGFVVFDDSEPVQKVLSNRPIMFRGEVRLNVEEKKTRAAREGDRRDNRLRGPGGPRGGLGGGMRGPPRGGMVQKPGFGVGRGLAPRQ"}
{"Oligonucleotide": "CAAGUCCUGUGCUACACAUCGUAUGUACCGAAUCGUGUGUGUGUGUGUGUGUGUGAAAGUAUUAUGUUACGCCGUUCGGAUCUGCACUUC", "log2 enrichment": -0.641}
{"Oligonucleotide": "UUCCUCAAGUCCUGUGCUACACAUCGUAUGUACCGAAUCGGUGGUGGUGGAAAGUAUUAUGUUACGCCGUUCGGAUCUGCACUUCCAGCA", "log2 enrichment": 0.386}
{"Oligonucleotide": "UUGACCUAGAGGAUGAGACCAUUGAUGCCGAGGUCAUGAACUCUCUAGCAGUUACUAUGGAUGACUUCCGGGUAAGGACCACACCCGUGC", "log2 enrichment": -1.17}
{"Oligonucleotide": "ACCAUGCAGGUGGGCAUCUUUGGGAAGUAGGGCAAGGGGGGGAUAGGGAGGGGGGUAACACUUUGGGAACAGGUGGUCCCAGGUCGUUUC", "log2 enrichment": 0.415}
{"Oligonucleotide": "GUCCUGUGCUACACAUCGUAUGUACCGAAUCGGGGUUUUUGGUUUUUGGGGUUUUUGGGAAAGUAUUAUGUUACGCCGUUCGGAUCUGCA", "log2 enrichment": -0.247}
{"Oligonucleotide": "UCCUGUGCUACACAUCGUAUGUACCGAAUCGGGGAAAAAGGGGAAAAAGGGGAAAAAGGAAAGUAUUAUGUUACGCCGUUCGGAUCUGCA", "log2 enrichment": 0.0427}
{"Oligonucleotide": "UCCUGUGCUACACAUCGUAUGUACCGAAUCGGCCCCCCCGGCCCCCCCGGCCCCCCCGGGAAAGUAUUAUGUUACGCCGUUCGGAUCUGC", "log2 enrichment": 0.368}
{"Oligonucleotide": "UGUGCUACACAUCGUAUGUACCGAAUCGGGGAAAAAAAGGGGAAAAAAAGGGAAAAAAAGGGGAAAGUAUUAUGUUACGCCGUUCGGAUC", "log2 enrichment": 0.921}
{"note": "For quick reference, copied from above (block 2):"}
{"Substitution": "S43A", "binding fitness [natural log]": 0.0541}
{"Substitution": "L45W", "binding fitness [natural log]": -0.924}
